# Measured values of several laboratories.
# Each line is one published result; not all experiments were run side by side. Several values in a cell are separate wells, animals, samples, runs or records. ± gives the spread as reported.
Compound,target or system,assay,system,conditions,scale,endpoint,value
COc1cc2c(cc1Nc1nc(Nc3cccc(F)c3C(N)=O)c3cc[nH]c3n1)N(C(=O)CN1CCN(C(C)C)CC1)CC2,Trypanosoma brucei,,,unit not given,reference: pEC50 T. brucei minus pTC50 HepG2,selectivity,1.4
Oc1[nH]c2ccccc2c1N=NC(=S)N1CCOCC1,Mus musculus,"gene silencing, high-content imaging",LDR reporter GFP cells,retest run 2,,maximal activity,100%
C[C@H]1C[C@H]2CSC(N)=N[C@@]2(c2nc(NC(=O)c3ccc(OC(F)F)cn3)cs2)CO1,,measured: Aβ1-40,"healthy adults, plasma","15 mg once daily, day 7",reference: placebo,percent change from baseline,-71.4%
C[C@@H]1CCc2c(sc(NC(=O)CN3CCN(S(=O)(=O)c4ccc5c(c4)OCCO5)CC3)c2C#N)C1,NAADP receptor,"antagonist, fluo-3 fluorescence","Lytechinus pictus, egg homogenate","up to 6 µM, together with: NAADP 30 to 50 nM",,NAADP-mediated Ca2+ release,inactive
CCn1cc(-c2cc(Cn3ccoc3=N)cc3c2CCN([C@@H](C)c2cc(OC)ccn2)C3=O)c(C(F)(F)F)n1,HMCB,"cell growth, inhibitor",,120 h,,EC50,0.0341 µM
Nc1cccc2c1C(=O)N(C1CCC(=O)NC1=O)C2=O (stereo not drawn),RPMI-8226,"flow cytometry, measured: CD183",,concentration not given,reference: comparator compound alone,surface marker level,154%
O=C(/C=C/C=C/C=C/C1CCCCC1)NC1=C[C@@](O)(/C=C/C=C/C=C/C(=O)NC2=C(O)CCC2=O)[C@@H]2O[C@@H]2C1=O,NCI-H1581,"cell growth, CellTiter-Glo",,78 h,,GI50,14.3 µM
CN(C)CCCNc1nccc(-c2c(-c3ccc(F)cc3)nn3cc(C(F)(F)F)ccc23)n1,Trypanosoma brucei,,,unit not given,reference: pEC50 T. brucei minus pTC50 HepG2,selectivity,1
CC(C)C[C@@H](/C=C/S(C)(=O)=O)NC(=O)[C@H](CC(C)C)NC(=O)[C@H](CC(C)C)NC(=O)OCc1ccccc1,Mus musculus,"gene silencing, high-content imaging",LDR reporter GFP cells,retest run 1,,maximal activity,54%
COc1cnc2cccc(N3CCc4c(cc(Cn5ccnc5C)cc4-c4cn(C)nc4C(F)(F)F)C3=O)c2c1,22Rv1,"cell growth, inhibitor",,120 h,,EC50,2.96 µM
CC(C)C(=O)N1CCN(c2ccc(NC(=O)c3ccc([N+](=O)[O-])o3)cc2Cl)CC1,Mus musculus,"gene silencing, high-content imaging",LDR reporter GFP cells,retest run 1,,maximal activity,38%
O=c1sn(-c2cccc3ccccc23)c(=O)n1Cc1ccccc1,Trypanosoma brucei,cell growth,,,,EC50,> 3 µM
C[C@H](Oc1ccc(Br)cc1-c1ccon1)C(=O)O,,muscle velocity recovery cycles,"human, tibialis anterior muscle","600 mg once daily, multiple doses, 30 Hz train for 30 s",reference: placebo,latency change,-0.07%
CCn1cc(-c2cc(Cn3ccnc3)cc3c2CCN([C@H](c2cc(OC)ccn2)C2CC2)C3=O)c(C(F)(F)F)n1,HLF,"cell growth, inhibitor",,120 h,,EC50,> 30 µM
COc1ccc(NC(=O)c2sc3nc(-c4ccc(OC)cc4)cc(C(F)(F)F)c3c2N)cc1,Mus musculus,"gene silencing, high-content imaging",LDR reporter GFP cells,retest run 2,,maximal activity,122%
CC(C)=Cc1cccc2c1C(=NNc1ccc(S(N)(=O)=O)cc1)C(=O)N2,Trypanosoma brucei,,,unit not given,reference: pEC50 T. brucei minus pTC50 HepG2,selectivity,2.5
Cc1cc(Nc2ccc(S(F)(F)(F)(F)F)cc2)n2nc(C(C)(F)F)nc2n1,Plasmodium vivax,12-lead ECG,malaria patients,"oral, 400 mg, increase above 30 ms",,patients with QTcF increase,0%
S=C(Nc1ccccc1)c1ccccn1,Mus musculus,"gene silencing, high-content imaging",LDR reporter GFP cells,retest run 1,,maximal activity,115%
O=C(NCCN1CCCC1=O)c1ccc([C@H]2[C@@H](F)[C@@H](F)C[C@@H](F)[C@H]2F)cc1,,hepatocyte stability,cryopreserved mouse hepatocytes,1 µM,,hepatic clearance,21 mL/min/kg
COc1ccc2c(c1)c1ccc3c(c1n2C)C(=O)C=CC3=O,Mus musculus,"gene silencing, high-content imaging",LDR reporter GFP cells,retest run 2,,maximal activity,58%
Cn1cc(-c2ccc(-c3cncc(Cl)c3N3CCC4(CCNC4=O)CC3)cc2)cn1,COLO 205,"microarray, measured: ATF-3",,"concentration not given, 2 h",reference: untreated cells,fold change in expression,1.65
COc1ccc2ncn(-c3cc(O[C@H](C)c4ccccc4Cl)c(C(N)=O)s3)c2c1,Trypanosoma brucei,,,unit not given,reference: pEC50 T. brucei minus pTC50 HepG2,selectivity,2
N#Cc1ccc2c(-c3ccncc3)c(-c3ccc(F)cc3)nn2c1,,"kinase binding, competitor, MIB/MS competition, measured: MCK1",Candida albicans cell lysate,10 µM,reference: DMSO,log2 fold change,-0.225
CC(C)C[C@H](NC(=O)C[C@H](O)[C@H](CC(C)C)NC(=O)[C@H](Cc1c[nH]cn1)NC(=O)CNC(=O)[C@@H](NC(=O)[C@H](C)NC(=O)[C@H](Cc1c[nH]c2ccccc12)NC(=O)[C@H](CCC(N)=O)NC(=O)[C@@H](Cc1ccccc1)NC(=O)COCCOCCNC(=O)CCC(C(=O)O)N1CCN(CC(=O)O)CCN(CC(=O)O)CCN(CC(=O)O)CC1)C(C)C)C(N)=O (stereo partly drawn) [lutetium-177 labelled],,,"female BALB/c nu/nu mice, lung","intravenous, 100 pmol, 2 h, together with: PA 300 µg",,tissue uptake,0.2 ± 0.04 %ID/g
CC(C)n1ncc2c(C(=O)NCC3(C)CNC3)cc(C3CC3)nc21,Enterovirus D68,cytopathic effect,"RD, US/IL/14-18956",5000 nM,,cell protection,96.6% and 95.4% and 92.8%
Oc1ccccc1-c1n[nH]cc1-c1ccnc2ccccc12,PBS2 (Candida albicans),"kinase binding, MIB/MS competition",Candida albicans lysate,10 µM,reference: DMSO,log2 fold change,0.21
Nc1ncc(-c2cccc(S(N)(=O)=O)c2)c2scc(-c3ccc(F)c(Cl)c3)c12,Trypanosoma brucei,,,unit not given,reference: pEC50 T. brucei minus pTC50 HepG2,selectivity,0.7
CCn1c(=O)c(-c2cc[nH]n2)cc2c(C)nc(N)nc21,Enterovirus A71,histopathology,"EV71-infected suckling mice, brain",0.25 mg/kg,direction not given,total pathology score,1
CC(C)NCC(O)c1ccc(O)c(O)c1 (stereo not drawn),,,"ventricular cardiomyocytes, C57BL/6 mouse","dose not given, 0.728 s",,sarcomere length,1.72 µm
COCCN(C)C(=O)c1ccc(C2CCCCC2)cc1,,hepatocyte stability,cryopreserved mouse hepatocytes,1 µM,,hepatic clearance,79 mL/min/kg
CC(=O)N[C@@H](CSC(=O)[C@]1([C@@H](O)C(C)C)NC(=O)[C@H](C)[C@@H]1O)C(=O)O,Mus musculus,"gene silencing, high-content imaging",LDR reporter GFP cells,retest run 2,,AC50,31.6 µM
Cc1n[nH]c2ccc(-c3cc(OC[C@@H](N)Cc4ccccc4)cnc3-c3ccoc3)cc12,,"kinase binding, competitor, MIB/MS competition, measured: ENV7",Candida albicans cell lysate,1 µM,reference: DMSO,log2 fold change,0.16
COc1cccc(-n2ncc3c(N/N=C/c4ccncc4)ncnc32)c1,Trypanosoma brucei,,,unit not given,reference: pEC50 T. brucei minus pTC50 HepG2,selectivity,> 2.4
c1coc(-c2n[nH]cc2-c2ccnc3ccccc23)c1,POM1 (Candida albicans),"kinase binding, MIB/MS competition",Candida albicans lysate,10 µM,reference: DMSO,log2 fold change,-0.43
COC(=O)c1ccc2c(c1)C(=Cc1cc(Br)c(O)c(Br)c1)C(=O)N2,Trypanosoma brucei,,,unit not given,reference: pEC50 T. brucei minus pTC50 HepG2,selectivity,> 0.6
O=C(Cn1c(=O)n(Cc2ccc(F)cc2)c(=O)c2sc3ccccc3c21)Nc1ccc(F)cc1F,Mus musculus,"gene silencing, high-content imaging",LDR reporter GFP cells,retest run 2,,maximal activity,61%

# A few entries again:
Compound,target or system,assay,system,conditions,scale,endpoint,value
CC(C)C[C@H](NC(=O)C[C@H](O)[C@H](CC(C)C)NC(=O)[C@H](Cc1c[nH]cn1)NC(=O)CNC(=O)[C@@H](NC(=O)[C@H](C)NC(=O)[C@H](Cc1c[nH]c2ccccc12)NC(=O)[C@H](CCC(N)=O)NC(=O)[C@@H](Cc1ccccc1)NC(=O)COCCOCCNC(=O)CCC(C(=O)O)N1CCN(CC(=O)O)CCN(CC(=O)O)CCN(CC(=O)O)CC1)C(C)C)C(N)=O (stereo partly drawn) [lutetium-177 labelled],,,"female BALB/c nu/nu mice, lung","intravenous, 100 pmol, 2 h, together with: PA 300 µg",,tissue uptake,0.2 ± 0.04 %ID/g
CC(C)n1ncc2c(C(=O)NCC3(C)CNC3)cc(C3CC3)nc21,Enterovirus D68,cytopathic effect,"RD, US/IL/14-18956",5000 nM,,cell protection,96.6% and 95.4% and 92.8%
